Results pooled from the literature.
Parts stem from different laboratories: compare values within a part only.
UniProt Q14012, sequence (whole entry, looked up): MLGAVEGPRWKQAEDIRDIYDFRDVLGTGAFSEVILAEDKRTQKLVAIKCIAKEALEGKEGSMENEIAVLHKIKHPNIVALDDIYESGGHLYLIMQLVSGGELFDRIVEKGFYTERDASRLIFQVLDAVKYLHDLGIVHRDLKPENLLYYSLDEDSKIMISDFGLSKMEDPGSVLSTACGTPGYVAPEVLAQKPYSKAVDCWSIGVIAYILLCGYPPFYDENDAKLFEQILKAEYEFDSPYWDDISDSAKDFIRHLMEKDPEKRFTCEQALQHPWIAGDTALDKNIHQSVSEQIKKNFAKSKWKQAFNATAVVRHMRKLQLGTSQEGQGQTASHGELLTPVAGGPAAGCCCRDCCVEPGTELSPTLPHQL
UniProt Q9NQU5, sequence (whole entry, looked up): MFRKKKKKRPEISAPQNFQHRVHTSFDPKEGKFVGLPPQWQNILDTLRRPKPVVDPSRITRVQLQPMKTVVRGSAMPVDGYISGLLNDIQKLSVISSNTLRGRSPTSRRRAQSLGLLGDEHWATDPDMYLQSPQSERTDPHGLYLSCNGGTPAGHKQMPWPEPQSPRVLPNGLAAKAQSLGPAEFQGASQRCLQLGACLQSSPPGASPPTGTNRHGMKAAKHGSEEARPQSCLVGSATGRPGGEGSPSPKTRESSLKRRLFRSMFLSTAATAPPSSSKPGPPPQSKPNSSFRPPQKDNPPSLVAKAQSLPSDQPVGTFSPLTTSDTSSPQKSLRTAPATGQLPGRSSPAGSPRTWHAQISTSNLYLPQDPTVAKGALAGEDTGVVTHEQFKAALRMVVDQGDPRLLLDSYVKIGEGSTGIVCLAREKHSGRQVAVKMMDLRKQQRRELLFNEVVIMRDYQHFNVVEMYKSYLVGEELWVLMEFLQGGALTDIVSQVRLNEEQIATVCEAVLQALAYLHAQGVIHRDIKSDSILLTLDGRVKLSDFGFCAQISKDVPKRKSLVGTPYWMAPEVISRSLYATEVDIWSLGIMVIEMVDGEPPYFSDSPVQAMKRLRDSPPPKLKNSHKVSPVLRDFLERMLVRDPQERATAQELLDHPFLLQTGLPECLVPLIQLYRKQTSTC
UniProt Q13153, sequence (whole entry, looked up): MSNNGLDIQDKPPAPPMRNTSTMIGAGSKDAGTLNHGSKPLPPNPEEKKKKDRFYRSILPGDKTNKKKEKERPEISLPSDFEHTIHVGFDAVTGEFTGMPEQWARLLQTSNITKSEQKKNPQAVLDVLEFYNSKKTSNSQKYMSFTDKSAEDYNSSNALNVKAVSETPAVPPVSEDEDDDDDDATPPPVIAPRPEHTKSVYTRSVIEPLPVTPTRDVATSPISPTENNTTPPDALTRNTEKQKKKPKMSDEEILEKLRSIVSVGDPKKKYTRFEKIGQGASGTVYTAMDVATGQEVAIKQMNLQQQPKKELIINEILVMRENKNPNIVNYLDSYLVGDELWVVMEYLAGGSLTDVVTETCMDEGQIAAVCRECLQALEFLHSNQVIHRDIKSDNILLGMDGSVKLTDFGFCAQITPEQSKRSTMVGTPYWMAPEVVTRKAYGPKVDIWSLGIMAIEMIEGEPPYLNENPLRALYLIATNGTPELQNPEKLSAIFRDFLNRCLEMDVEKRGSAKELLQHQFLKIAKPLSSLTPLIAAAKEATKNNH
UniProt P78356, sequence (whole entry, looked up): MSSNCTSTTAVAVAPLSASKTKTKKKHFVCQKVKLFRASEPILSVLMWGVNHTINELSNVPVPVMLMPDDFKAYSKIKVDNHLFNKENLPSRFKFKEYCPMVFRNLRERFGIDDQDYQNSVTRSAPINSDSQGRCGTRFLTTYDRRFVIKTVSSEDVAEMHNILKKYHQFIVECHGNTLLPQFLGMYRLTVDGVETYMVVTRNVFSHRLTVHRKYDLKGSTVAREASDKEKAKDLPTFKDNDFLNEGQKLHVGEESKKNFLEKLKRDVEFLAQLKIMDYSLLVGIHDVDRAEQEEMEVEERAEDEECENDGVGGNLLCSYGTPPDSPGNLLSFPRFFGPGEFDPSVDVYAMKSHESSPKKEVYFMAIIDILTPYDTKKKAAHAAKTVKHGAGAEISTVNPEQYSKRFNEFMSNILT
UniProt P49674, sequence (whole entry, looked up): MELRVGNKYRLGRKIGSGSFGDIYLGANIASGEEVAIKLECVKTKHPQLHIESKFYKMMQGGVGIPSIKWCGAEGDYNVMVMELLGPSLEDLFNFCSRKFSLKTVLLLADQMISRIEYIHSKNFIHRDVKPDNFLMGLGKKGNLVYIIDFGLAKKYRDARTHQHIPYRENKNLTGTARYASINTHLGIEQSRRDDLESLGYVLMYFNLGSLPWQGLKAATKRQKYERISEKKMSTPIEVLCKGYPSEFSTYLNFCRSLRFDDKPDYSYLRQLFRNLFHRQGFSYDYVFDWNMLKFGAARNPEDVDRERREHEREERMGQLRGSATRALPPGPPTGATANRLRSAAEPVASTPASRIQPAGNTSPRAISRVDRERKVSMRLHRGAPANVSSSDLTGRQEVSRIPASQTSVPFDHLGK
UniProt P51812, sequence (whole entry, looked up): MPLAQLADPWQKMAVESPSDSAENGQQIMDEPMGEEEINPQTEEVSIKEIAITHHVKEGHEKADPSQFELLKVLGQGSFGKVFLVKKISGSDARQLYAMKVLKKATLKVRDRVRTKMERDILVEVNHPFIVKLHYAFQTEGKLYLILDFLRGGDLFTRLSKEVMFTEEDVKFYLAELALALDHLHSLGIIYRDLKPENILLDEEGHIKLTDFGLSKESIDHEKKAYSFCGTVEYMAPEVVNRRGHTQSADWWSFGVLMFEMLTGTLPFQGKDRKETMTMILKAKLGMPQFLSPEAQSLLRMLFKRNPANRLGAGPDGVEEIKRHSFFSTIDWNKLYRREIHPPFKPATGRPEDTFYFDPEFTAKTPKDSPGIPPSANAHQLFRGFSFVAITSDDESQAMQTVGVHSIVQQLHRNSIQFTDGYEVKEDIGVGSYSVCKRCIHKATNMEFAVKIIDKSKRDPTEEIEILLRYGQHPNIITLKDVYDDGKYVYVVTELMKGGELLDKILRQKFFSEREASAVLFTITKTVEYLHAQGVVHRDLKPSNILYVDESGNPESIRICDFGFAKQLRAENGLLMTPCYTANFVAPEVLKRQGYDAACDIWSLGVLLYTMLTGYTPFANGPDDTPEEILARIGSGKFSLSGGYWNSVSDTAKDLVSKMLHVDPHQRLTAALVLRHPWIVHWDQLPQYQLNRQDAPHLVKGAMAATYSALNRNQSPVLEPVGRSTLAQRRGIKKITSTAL
UniProt Q9BYT3, sequence (whole entry, looked up): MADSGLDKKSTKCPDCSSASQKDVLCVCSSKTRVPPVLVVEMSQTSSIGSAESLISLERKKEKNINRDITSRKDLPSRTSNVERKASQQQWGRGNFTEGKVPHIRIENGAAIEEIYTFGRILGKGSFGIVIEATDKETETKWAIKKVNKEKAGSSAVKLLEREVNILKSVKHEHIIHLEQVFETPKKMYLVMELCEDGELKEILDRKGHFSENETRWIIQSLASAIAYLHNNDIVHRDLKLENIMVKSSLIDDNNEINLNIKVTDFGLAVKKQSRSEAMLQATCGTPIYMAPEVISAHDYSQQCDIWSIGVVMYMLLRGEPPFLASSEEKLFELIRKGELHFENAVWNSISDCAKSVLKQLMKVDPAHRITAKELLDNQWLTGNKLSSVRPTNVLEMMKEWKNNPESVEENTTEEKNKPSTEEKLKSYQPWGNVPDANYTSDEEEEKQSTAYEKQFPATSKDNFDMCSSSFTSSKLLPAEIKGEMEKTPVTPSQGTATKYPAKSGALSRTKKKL
UniProt P11309, sequence (whole entry, looked up): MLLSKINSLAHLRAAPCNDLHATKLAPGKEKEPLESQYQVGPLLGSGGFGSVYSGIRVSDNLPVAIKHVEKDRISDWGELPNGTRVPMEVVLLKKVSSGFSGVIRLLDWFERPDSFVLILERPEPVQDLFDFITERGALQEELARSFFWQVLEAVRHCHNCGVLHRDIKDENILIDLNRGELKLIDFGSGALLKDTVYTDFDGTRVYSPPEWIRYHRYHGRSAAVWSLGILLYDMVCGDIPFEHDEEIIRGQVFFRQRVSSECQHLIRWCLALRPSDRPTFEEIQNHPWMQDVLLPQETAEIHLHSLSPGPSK
UniProt Q9UEE5, sequence (whole entry, looked up): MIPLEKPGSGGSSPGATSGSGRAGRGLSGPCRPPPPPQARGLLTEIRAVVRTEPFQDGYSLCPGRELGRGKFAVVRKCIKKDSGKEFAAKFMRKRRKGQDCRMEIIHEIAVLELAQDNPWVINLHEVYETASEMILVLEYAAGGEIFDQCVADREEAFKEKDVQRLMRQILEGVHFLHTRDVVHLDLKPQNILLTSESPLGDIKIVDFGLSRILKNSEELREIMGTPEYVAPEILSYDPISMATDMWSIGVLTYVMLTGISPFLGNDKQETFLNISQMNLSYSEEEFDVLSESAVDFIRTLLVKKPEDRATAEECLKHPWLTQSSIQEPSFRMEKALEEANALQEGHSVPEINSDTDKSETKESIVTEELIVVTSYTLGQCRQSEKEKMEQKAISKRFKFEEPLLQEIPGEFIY

Study 1
Target: Diamine acetyltransferase 1 (Homo sapiens, UniProt P21673)
Mode: inhibitor
Tested at: 10 µM
Reference: control
Residues (P21673 1-171): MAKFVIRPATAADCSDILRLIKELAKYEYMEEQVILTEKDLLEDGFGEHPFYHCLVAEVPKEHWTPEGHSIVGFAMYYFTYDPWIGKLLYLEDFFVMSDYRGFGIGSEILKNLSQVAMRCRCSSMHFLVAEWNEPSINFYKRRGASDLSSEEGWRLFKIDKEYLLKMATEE
| Compound | remaining activity [%] |
| --- | --- |
| O=c1cc(-c2ccc(O)c(O)c2)oc2cc(O[C@@H]3O[C@H](CO)[C@@H](O)[C@H](O)[C@H]3O)cc(O)c12 | 112 |
| COc1cc(/C=C/c2ccc(O)c(O)c2)cc(OC)c1 | 107 |
| COc1c(OC)c2occc2c2oc(=O)ccc12 | 88.7 |
| C=CCc1ccc(O)c(-c2ccc(O)c(CC=C)c2)c1 | 95.8 |
| COc1cc(C(C)=O)ccc1O[C@@H]1O[C@H](CO)[C@@H](O)[C@H](O)[C@H]1O | 82.3 |
| COc1c(CC=C(C)C)c(O)cc2oc(=O)c(-c3ccc(O)cc3O)cc12 | 92.7 |
| COc1cc(/C=C/CO)cc(OC)c1O[C@@H]1O[C@H](CO)[C@@H](O)[C@H](O)[C@H]1O | 82.5 |
| COc1ccc(-c2coc3cc(O)c(OC)c(O)c3c2=O)cc1O | 82.1 |
| COc1ccc(-c2coc3cc(O[C@@H]4O[C@H](CO)[C@@H](O)[C@H](O)[C@H]4O)ccc3c2=O)cc1 | 97.4 |
| O=c1c(-c2ccc(O)cc2)coc2c([C@@H]3O[C@H](CO[C@@H]4OC[C@@H](O)[C@H](O)[C@H]4O)[C@@H](O)[C@H](O)[C@H]3O)c(O)ccc12 | 84 |
| Nc1[nH]cnc2ncnc1-2 | 83 |
| C=C1CC[C@@H]2[C@H]([C@@H]3[C@H](C)CC[C@@H]13)C2(C)C | 91.4 |
| CC(C)(O)[C@@H]1CC[C@](C)([C@H]2[C@@H](O)C[C@@]3(C)[C@@H]4C[C@H](O[C@@H]5O[C@H](CO)[C@@H](O)[C@H](O)[C@H]5O)[C@H]5C(C)(C)[C@@H](O[C@@H]6OC[C@@H](O)[C@H](O)[C@H]6O)CC[C@@]56C[C@@]46CC[C@]23C)O1 | 87.9 |
| O=C1C[C@@H](c2ccc(O)cc2)Oc2cc(O)ccc21 | 91.7 |
| O=C1c2cccc(O)c2C(=O)c2c(O)cccc21 | 103 |
| O=C(O)/C=C/c1ccccc1O | 101 |
| Cc1cc2nc3c(=O)[nH]c(=O)nc-3n(C[C@H](O)[C@H](O)[C@H](O)CO)c2cc1C | 100 |
| CC[C@H](CC[C@@H](C)[C@H]1CC[C@H]2[C@@H]3CC=C4C[C@@H](O)CC[C@]4(C)[C@H]3CC[C@]12C)C(C)C | 100 |
| COc1cc(-c2oc3cc(O)cc(O)c3c(=O)c2O[C@@H]2O[C@H](CO)[C@@H](O)[C@H](O)[C@H]2O)ccc1O | 110 |

Study 2
Target: Calcium/calmodulin-dependent protein kinase type II subunit alpha (CAMK2A, Homo sapiens, UniProt Q9UQM7)
UniProt Q9UQM7, sequence (whole entry, looked up): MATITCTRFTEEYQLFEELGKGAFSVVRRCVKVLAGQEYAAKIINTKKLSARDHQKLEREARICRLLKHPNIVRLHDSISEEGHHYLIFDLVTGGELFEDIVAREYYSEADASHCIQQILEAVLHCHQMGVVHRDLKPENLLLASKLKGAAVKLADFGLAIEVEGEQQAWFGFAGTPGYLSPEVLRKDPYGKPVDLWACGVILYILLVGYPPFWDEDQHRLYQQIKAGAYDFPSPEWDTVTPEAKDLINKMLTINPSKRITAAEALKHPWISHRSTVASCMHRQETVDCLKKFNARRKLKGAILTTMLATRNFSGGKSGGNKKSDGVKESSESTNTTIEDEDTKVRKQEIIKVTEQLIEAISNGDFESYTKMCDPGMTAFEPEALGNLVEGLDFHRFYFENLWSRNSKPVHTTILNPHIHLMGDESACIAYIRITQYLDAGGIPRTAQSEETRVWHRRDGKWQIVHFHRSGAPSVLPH
Effect on: enzyme activity
Mode: inhibitor
Tested at: 10 µM
| SMILES | inhibition |
| --- | --- |
| CC(C)(N)C(=O)O | 6% |
| COC1=C(OC)C(=O)C(C/C=C(\C)CC/C=C(\C)CC/C=C(\C)CC/C=C(\C)CC/C=C(\C)CC/C=C(\C)CC/C=C(\C)CC/C=C(\C)CCC=C(C)C)=C(C)C1=O | -7% |
| C[C@@H]1CC(=O)c2c(ccc3c2C(=O)c2cccc(O)c2C3=O)C1 | 7% |
| CC(C)=C/C=C1\O[C@@H]2CC(C)=CC(=O)[C@@H]2[C@]1(C)O | -19% |
| CC(C)(C)NC[C@H](O)COc1cccc2c1CCCC2=O | -6% |
| C[C@@H](c1ccc2nccn2c1)n1nnc2ncc(-c3cnn(C)c3)nc21 | -1% |
| NC(=O)c1ccccc1O | -4% |
| CC1=CC(=O)CC1 | -6% |
| CN(C)c1ccc(O)c2c1C[C@H]1C[C@H]3[C@H](N(C)C)C(O)=C(C(N)=O)C(=O)[C@@]3(O)C(O)=C1C2=O | 2% |
| CC(C)/N=c1\cc2n(-c3ccc(Cl)cc3)c3ccccc3nc-2cc1Nc1ccc(Cl)cc1 | 9% |
| CC(C)=C[C@@H]1CO[C@]23C[C@]4(CO2)[C@H](CC[C@@H]2[C@@]5(C)CC[C@H](O[C@@H]6OC[C@H](O)[C@H](O[C@@H]7O[C@H](CO)[C@@H](O)[C@H](O)[C@H]7O)[C@H]6O[C@@H]6O[C@@H](CO)[C@H](O)[C@H]6O)C(C)(C)[C@@H]5CC[C@]24C)[C@H]3[C@@]1(C)O | -9% |
| C/C(=C\C(=O)OCCCCCCCCC(=O)O)C[C@@H]1OC[C@H](C[C@@H]2O[C@H]2[C@@H](C)[C@H](C)O)[C@@H](O)[C@H]1O | -7% |

Study 3
Compound: O=C(O)[C@@H]1[C@@H](Cn2nnc3ccccc3c2=O)CC[C@H]1C(=O)c1ccc(OCCC2CCOCC2)cc1
Effect on: cell-free assay
Method: competition with immobilised ligand
Tested at: 1 µM
| target | remaining binding [%] |
| --- | --- |
| EGFR (Homo sapiens, UniProt P00533, G719S) | 88 |
| WEE2 (Homo sapiens, UniProt P0C1S8) | 100 |
| NEK11 (Homo sapiens, UniProt Q8NG66) | 100 |
| EGFR (Homo sapiens, UniProt P00533) | 90 |
| MAP3K10 (Homo sapiens, UniProt Q02779) | 100 |
| PIM1 (Homo sapiens, UniProt P11309) | 100 |
| RIPK2 (Homo sapiens, UniProt O43353) | 97 |
| PRKACA (Homo sapiens, UniProt P17612) | 90 |
| DAPK2 (Homo sapiens, UniProt Q9UIK4) | 100 |
| Tyrosine-protein kinase ABL1, phosphorylated (ABL1, Homo sapiens, UniProt P00519, F317L) | 92 |
| PIP4K2B (Homo sapiens, UniProt P78356) | 81 |
| STK32C (Homo sapiens, UniProt Q86UX6) | 100 |
| Mast/stem cell growth factor receptor Kit, autoinhibited (KIT, Homo sapiens, UniProt P10721) | 89 |
| SRMS (Homo sapiens, UniProt Q9H3Y6) | 100 |
| STK17A (Homo sapiens, UniProt Q9UEE5) | 98 |
| STK33 (Homo sapiens, UniProt Q9BYT3) | 69 |
| MAP3K1 (Homo sapiens, UniProt Q13233) | 100 |

Study 4
SMILES: c1ccc(-c2cnc(Nc3ccc(OCCN4CCCC4)cc3)s2)cc1
Effect on: enzyme activity
Mode: inhibitor
Tested at: 0.5 µM
Reference: control
| target | remaining activity [%] |
| --- | --- |
| JAK1 (Homo sapiens, UniProt P23458) | 101 |
| PRKCZ (Homo sapiens, UniProt Q05513) | 96.3 |
| TYRO3 (Homo sapiens, UniProt Q06418) | 90.9 |
| CSNK1D (Homo sapiens, UniProt P48730) | 95.8 |
| SGK2 (Homo sapiens, UniProt Q9HBY8) | 101 |
| CLK1 (Homo sapiens, UniProt P49759) | 89.4 |
| PAK6 (Homo sapiens, UniProt Q9NQU5) | 101 |
| TEC (Homo sapiens, UniProt P42680) | 106 |
| CSNK1E (Homo sapiens, UniProt P49674) | 81.2 |
| CAMK1 (Homo sapiens, UniProt Q14012) | 86.3 |
| CAMKK1 (Homo sapiens, UniProt Q8N5S9) | 56.6 |
| FLT1 (Homo sapiens, UniProt P17948) | 74.5 |
| Cyclin-dependent kinase 2, with cyclin E (CDK2, Homo sapiens, UniProt P24941) | 85.7 |
| RPS6KA3 (Homo sapiens, UniProt P51812) | 92.2 |
| SIK2 (Homo sapiens, UniProt Q9H0K1) | 45.6 |
| IGF1R (Homo sapiens, UniProt P08069) | 112 |
| PRKCQ (Homo sapiens, UniProt Q04759) | 91.2 |
| EPHA2 (Homo sapiens, UniProt P29317) | 108 |
| MAP3K20 (Homo sapiens, UniProt Q9NYL2) | 25.9 |
| SRPK1 (Homo sapiens, UniProt Q96SB4) | 99.9 |
| PAK1 (Homo sapiens, UniProt Q13153) | 97 |
| CLK2 (Homo sapiens, UniProt P49760) | 102 |
